Published values gathered from unrelated publications.
Protocols differ between the studies behind these lines. ± gives the spread as reported.
HTR3A: 5-hydroxytryptamine receptor 3A (HTR3A, Homo sapiens, UniProt P46098)
UniProt P46098, sequence (whole entry, looked up): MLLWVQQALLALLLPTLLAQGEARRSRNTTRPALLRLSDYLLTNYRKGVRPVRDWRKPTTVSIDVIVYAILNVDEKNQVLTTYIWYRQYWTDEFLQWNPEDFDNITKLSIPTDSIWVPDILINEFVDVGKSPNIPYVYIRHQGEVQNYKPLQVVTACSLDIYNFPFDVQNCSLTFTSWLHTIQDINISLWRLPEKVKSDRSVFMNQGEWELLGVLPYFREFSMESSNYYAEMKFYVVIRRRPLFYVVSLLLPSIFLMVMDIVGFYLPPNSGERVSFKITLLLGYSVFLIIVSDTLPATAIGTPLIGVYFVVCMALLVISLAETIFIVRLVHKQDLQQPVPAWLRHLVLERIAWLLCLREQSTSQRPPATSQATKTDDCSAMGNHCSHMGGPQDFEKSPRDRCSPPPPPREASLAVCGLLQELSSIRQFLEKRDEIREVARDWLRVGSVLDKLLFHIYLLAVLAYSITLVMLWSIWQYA

CN1CCc2[nH]c3ccccc3c2CC1.O=C(O)/C=C/C(=O)O — activity (HTR3A; concentration not given): inactive
CCN(CC)CCCC[C@H](NC(=O)[C@H](CC(C)C)NC(=O)[C@H](C)NC(=O)[C@H](Cc1ccccc1)NC(=O)c1ccc(C(C)(C)C)cc1)C(=O)N[C@@H](CO)C(=O)OC — specific binding (HTR3A; antagonist, radioligand binding; 10 µM; relative to: control binding): 121%
CC(C)C(=O)Nc1ccc([N+](=O)[O-])c(C(F)(F)F)c1 — maximum inhibition (human coronavirus OC43; virus-induced cell killing; MRC-5; screen): 21.1%
O=c1ccc2ccccc2o1 — inhibition (HTR3A; antagonist radioligand binding; 10 µM, SafetyScreen44): -3.33%
Cn1cccc1-c1cccnc1 — inhibition (HTR3A; binding; 50 µM, mean): -5.15%
CN(C(=O)n1cnc(-c2ccc[n+]([O-])c2)c1)C1CCCCC1 — inhibition (HTR3A; radioligand binding; 50 µM, with: [3H]GR-65630): -6%
CN1[C@@H]2CC[C@H]1C[C@@H](OC(=O)c1cc(Cl)cc(Cl)c1)C2 — Hill coefficient (HTR3A; binding, antagonist, radioligand binding): 1.1
O=C(Nc1cnccc1Cl)N1CCN(Cc2ccc3c(c2)OC(F)(F)O3)CC1 — inhibition of binding (HTR3A; radioligand binding; 50 µM, with: [3H]GR-65630): 0%
CC(C)(C)c1ccc(S(=O)(=O)NCc2ccc(C(=O)Nc3cccnc3)cc2)cc1 — maximum inhibition (human coronavirus OC43; virus-induced cell killing; MRC-5; screen): 26.9%
O=C(Nc1cccnn1)N1CCC(=Cc2cccc(Oc3ccc(C(F)(F)F)cn3)c2)CC1 — inhibition of binding (HTR3A; radioligand binding; 50 µM, with: [3H]GR-65630): -16%
O=C1CN=C(c2ccccc2)c2cc(/N=N/c3ccc(S(=O)(=O)O)cc3)ccc2N1 — inhibition (HTR3A; 5-HT-induced current, inhibitor, whole-cell patch clamp; CHO cells; 50 µM, visible light, holding -30 mV, with: 5-HT): 82 ± 4%

A few entries again:
O=C(Nc1cccnn1)N1CCC(=Cc2cccc(Oc3ccc(C(F)(F)F)cn3)c2)CC1 — inhibition of binding (HTR3A; radioligand binding; 50 µM, with: [3H]GR-65630): -16%
